Measured values pooled from the literature.
Lines come from different studies, so protocols differ. “And” joins repeats or separate records; there may be more than shown. ± gives the spread as reported.
Genome polyprotein NS2B-NS3 protease: Genome polyprotein, NS2B-NS3 protease (ZIKV, UniProt A0A024B7W1)

For COc1cccc(NC(=O)C(=O)[C@H](CC(C)C)NC(=O)[C@H](CC(C)C)NC(=O)[C@H](CC(C)C)NC(=O)c2ccc(-c3ccc(C(C)=O)cc3)o2)c1, the IC50 was 0.0288 µM (Proteasome component C5/PSMB5, chymotrypsin-like site (Homo sapiens, UniProt P20618+P28074); enzyme activity in cells, inhibitor).
Cc1noc(C)c1-c1ccc(-c2nc(OCC3CCNCC3)cnc2-c2ccc(CN)cc2)cc1 gave an IC50 of over 10 µM (Genome polyprotein NS2B-NS3 protease; inhibitor; Zika virus).
The IC50 of CCCC(C(=O)O)[C@@H]1CCN[C@H]1C(=O)O (relative stereo) is reported as over 100 µM (AMPA receptor, rat; binding; cortical synaptosomes; together with: [3H]-AMPA).
With N[C@H](C(=O)O)[C@@H]1CC(Br)=NO1 the IC50 was 0.098 ± 0.01 µM (CTP synthase (Trypanosoma brucei brucei, UniProt Q4GZ95); enzyme activity, inhibitor, coupled spectrophotometric; pre-incubated with enzyme).
`Phoxim oxon` gave an IC50 of 0.0004 µM (rat liver carboxylesterase; enzyme activity, inhibitor; rat, postnatal day 70, liver homogenate; together with: p-nitrophenyl valerate).
For C=C(NC(=O)C(=C)NC(=O)c1csc(C2=N[C@@H]3c4csc(n4)[C@H]4NC(=O)c5csc(n5)[C@H]([C@](C)(O)[C@@H](C)O)NC(=O)[C@H]5CSC(=N5)/C(=C/C)NC(=O)[C@H]([C@@H](C)O)NC(=O)c5csc(n5)[C@]3(CC2)NC(=O)[C@H](C)NC(=O)C(=C)NC(=O)[C@H](C)NC(=O)[C@H]([C@@H](C)CC)N[C@@H]2C=Cc3c([C@H](C)O)cc(nc3[C@H]2O)C(=O)O[C@@H]4C)n1)C(N)=O, the IC50 was 0.95 ± 0.15 µM (Proteasome subunit beta type-7, in 20S proteasome (PSMB7, Homo sapiens, UniProt Q99436); trypsin-like activity, inhibitor; purified 20S proteasome; 15 min preincubation, 37 °C, together with: Boc-Leu-Arg-Arg-AMC substrate).
For CCCCCc1cc(O)cc(O)c1C(=O)Oc1ccc(C(=O)O)c(O)c1, the IC50 was 250 to 500 µM (DNA topoisomerase 1 (topA, Escherichia coli, UniProt P06612); enzyme activity, inhibitor).
O=C1O[C@H]2[C@@H]3OC(=O)c4cc(O)c(O)c(O)c4-c4c(O)c(O)c5oc(=O)c6c(c(O)c(O)c7oc(=O)c4c5c76)-c4c(cc(O)c(O)c4O)C(=O)OC[C@H]3OC(O)[C@@H]2OC(=O)c2cc(O)c(O)c(O)c2-c2c1cc(O)c(O)c2O (mixture of isomers) gave an IC50 of 8.1 µM (DNA oxidative demethylase ALKBH2 (ALKBH2, Homo sapiens, UniProt Q6NS38); 3-methylcytosine repair, inhibitor, HPLC; 1 h, 37 °C, together with: ssDNA 16mer 5 µM).
For CN=c1scc(-c2ccccc2F)n1/N=C/c1ccc[nH]1, the IC50 was 0.04 ± 0.01 µM (Luciferin 4-monooxygenase (Photinus pyralis, UniProt P08659); enzyme activity, inhibitor; purified enzyme; together with: ATP and D-luciferin at Km (10 µM)).
The IC50 of C=C1C(=O)N[C@@H](C)C(=O)N(C)[C@@H](C)C(=O)N[C@@H]([C@H](OC(=O)[C@@H](NC(=O)CC)[C@H](O)C(C)C)C(C)C)C(=O)N(C)[C@@H]([C@@H](C)OC)C(=O)O[C@H](C(C)C)[C@H](NC(C)=O)C(=O)O[C@H](Cc2ccccc2)C(=O)N1C is reported as 76 µM (Guanine nucleotide-binding protein G(i) subunit alpha-1 (GNAI1, Homo sapiens, UniProt P63096, H188P/K180P/T187Y/V185I/V50I/V72L/Y69F); nucleotide exchange rate, inhibitor, BODIPY-GTPγS binding).
O=C(NCCCCCCn1ccc2ccc(F)cc21)OC(C(F)(F)F)C(F)(F)F has an IC50 of 2 µM (Monoglyceride lipase (MGLL, Homo sapiens, UniProt Q99685); enzyme activity, inhibitor).
For COc1cc(C2CCCCc3c2ccc(OC)c3OP(=O)(O)O)cc(OC)c1OC (stereo not drawn), the IC50 was over 20 µM (Tubulin alpha-1B chain/TUBB2B (Bos taurus, UniProt P81947+Q6B856); tubulin polymerization, inhibitor, turbidimetry; 20 min, 30 °C, together with: 10 µM tubulin).
O=S(=O)(O)Oc1ccc(-c2cccc(Cl)c2)cc1Cl gave an IC50 of over 100 µM (Sulfotransferase 2A1 (SULT2A1, Homo sapiens, UniProt Q06520); enzyme activity, inhibitor, radiometric; pH 7.4).
CCOP(=O)(OCC)Oc1nc(Cl)c(Cl)cc1Cl gave an IC50 of 0.017 µM (muscarinic receptors, rat; radioligand displacement; aging cortex membranes; 90 min, 21 °C, together with: 1 nM [3H]oxotremorine-M).
Oc1ccc(-c2ccc(-c3ccc(O)cc3)[se]2)cc1 has an IC50 of 0.52 µM (Estrogen receptor (ESR1, Homo sapiens, UniProt P03372); antagonist; HEK293T; together with: estradiol 10 nM).
With Fc1ccc(-n2cc(COc3ccnc4cc(Cl)ccc34)nn2)cc1Cl the IC50 was 45.1 µM and ~45 µM (FP2A (Plasmodium falciparum, UniProt Q8I6U4); enzyme activity, inhibitor, fluorescence; pH 5.5, with preincubation).
CCCCN1[C@H](CO)[C@@H](O)[C@@H]1CO gave an IC50 of over 300 µM (Non-lysosomal glucosylceramidase (Gba2, Rattus norvegicus, UniProt Q5M868); inhibitor; Long Evans rat, testis microsomes; together with: 4-methylumbelliferyl glucoside).
For CCC(=C(c1ccc(OCCN2CCCC2)cc1)c1ccc(OCCN2CCCC2)cc1)c1ccccc1, the IC50 was 0.3 ± 0.034 µM (Cannabinoid receptor 2 (CNR2, Homo sapiens, UniProt P34972); inverse agonist; CHO-hCB2 membranes).
For Nc1nc2c(ncn2[C@H]2C[C@H](O)[C@@H](COP(=O)(O)NP(=O)(O)OP(=O)(O)O)O2)c(=O)[nH]1, the IC50 was 0.057 µM (Deoxynucleoside triphosphate triphosphohydrolase SAMHD1 (SAMHD1, Homo sapiens, UniProt Q9Y3Z3); enzyme activity, inhibitor).
O=C1OC2(c3cc(Br)c(O)cc3Oc3cc(O)c(Br)cc32)c2ccccc21 gave an IC50 of over 300 µM (Dual specificity protein phosphatase 5 (Homo sapiens, UniProt Q16690); phosphatase activity; 30 min, 1 mM DTT, together with: pNPP).
[Br-].[Na+] has an IC50 of 27000 µM (Beta-lactamase OXA-10 (Pseudomonas aeruginosa, UniProt P14489); enzyme activity, inhibitor; pH 7.2, with preincubation).
With NC[C@@H]1O[C@H](O[C@H]2[C@@H](O)[C@H](O[C@@H]3[C@@H](O)[C@H](N)C[C@H](N)[C@H]3O[C@H]3O[C@H](CN)[C@@H](O)[C@H](O)[C@H]3N)O[C@@H]2CO)[C@H](N)[C@@H](O)[C@@H]1O the IC50 was 0.713 ± 0.165 µM (HIV-1 TAR RNA; Tat peptide binding, FRET competition; pH 7.4, 25 °C).
The IC50 of O=C1C2CC=CCC2C(=O)N1c1n[nH]c(Cc2ccccc2)n1 (stereo not drawn) is reported as 0.126 ± 0.005 µM (Alkaline phosphatase, tissue-nonspecific isozyme (ALPL, Homo sapiens, UniProt P05186); enzyme activity, inhibitor, luminescence; together with: 50 µM CDP-star, 100 mM DEA).
With C[C@@H]1C[C@H]2[C@@H]3CCC4=CC(=O)C=C[C@]4(C)[C@@]3(Cl)[C@@H](O)C[C@]2(C)[C@@]1(OC(=O)c1ccco1)C(=O)CCl the IC50 was 1 ± 0.5 µM (Multidrug resistance-associated protein 1 (ABCC1, Homo sapiens, UniProt P33527); substrate efflux, inhibitor, flow cytometry; ABCC1-overexpressing SupT1-Vin cells; together with: BODIPY-FL-prazosin 100 nM).
COc1ccc(N2C(=O)/C(=C/c3ccco3)C(=O)NC2=S)cc1 has an IC50 of 19.6 µM (Cell death protein 3 (ced-3, Caenorhabditis elegans, UniProt P42573); enzyme activity, inhibitor; crude E. coli lysate; together with: 20 µM Ac-DEVD-AMC).
With CNC(=O)OCC[N+](C)(C)C the IC50 was 0.0452 ± 0.0076 µM (Neuronal acetylcholine receptor subunit alpha-4/beta-2 (Mus musculus, UniProt O70174+Q9ERK7); receptor desensitisation; mouse thalamic synaptosomes; low ACh-sensitivity component).
With CCN(c1nc(N)c(C(=O)N=C(N)N)nc1Cl)C(C)C the IC50 was 1 µM (Kcnj6/Kcnj3 (Mus musculus, UniProt P48542+P63250); GIRK channel activity, inhibitor, membrane potential dye fluorescence; AtT20; together with: somatostatin).
NCc1ccc(-c2ncc(OCCN3CCNCC3)nc2-c2ccc(CN)cc2)cc1 has an IC50 of over 10 µM (Genome polyprotein NS2B-NS3 protease; inhibitor; Zika virus).
With CC(C)N(CCCNC(=O)Nc1ccc(C(C)(C)C)cc1)C[C@H]1O[C@@H](n2ccc3c(N)ncnc32)[C@H](O)[C@@H]1O the IC50 was 43 µM (DNA adenine methyltransferase CamA (Clostridioides difficile, UniProt Q183J3); DNA methylation, inhibitor, MTase-Glo luminescence; 2.5 min, room temperature, together with: SAM 40 µM, dsDNA 5 µM).
With O=C1NC(=S)NC(=O)C1=Cc1cn(Cc2ccc3ccccc3c2)c2ccc(Cl)cc12 the IC50 was 8 µM (DNA polymerase eta (POLH, Homo sapiens, UniProt Q9Y253); enzyme activity, inhibitor, fluorescence).
With C=C(C)[C@@H]1CCC(C)=C[C@H]1c1c(O)cc(CCCCC)cc1O the IC50 was 0.073 ± 0.011 µM (UDP-glucuronosyltransferase 1A9 (UGT1A9, Homo sapiens, UniProt O60656); inhibitor; HEK293 overexpressing UGT1A9, recombinant UGT1A9 microsomes; pH 7.4, together with: acetaminophen glucuronidation).
C/C=C1\NC(=O)[C@@H](NC(=O)[C@@H](NC(=O)C/C(=C/Cl)CC)C(C)C)[C@@H](C)OC(=O)[C@H](C(C)C)NC(=O)[C@H](Cc2ccc(O)cc2)N(C)C(=O)[C@H](Cc2ccccc2)N2C(=O)[C@H](CC[C@H]2O)NC1=O gave an IC50 of 0.542 µM (Chymotrypsinogen B (Homo sapiens, UniProt P17538); enzyme activity, inhibitor, fluorescence; pH 7.4).
For CCCCC/C=C\C/C=C\C/C=C\C/C=C\CCCCN1C(=O)C=CC1=O, the IC50 was 8.5 µM (Monoglyceride lipase (MGLL, Homo sapiens, UniProt Q99685, C208A/C242A); enzyme activity, inhibitor; together with: AHMMCE substrate).

Excerpt of the above:
COc1ccc(N2C(=O)/C(=C/c3ccco3)C(=O)NC2=S)cc1 has an IC50 of 19.6 µM (Cell death protein 3 (ced-3, Caenorhabditis elegans, UniProt P42573); enzyme activity, inhibitor; crude E. coli lysate; together with: 20 µM Ac-DEVD-AMC).
The IC50 of CCCC(C(=O)O)[C@@H]1CCN[C@H]1C(=O)O (relative stereo) is reported as over 100 µM (AMPA receptor, rat; binding; cortical synaptosomes; together with: [3H]-AMPA).
O=S(=O)(O)Oc1ccc(-c2cccc(Cl)c2)cc1Cl gave an IC50 of over 100 µM (Sulfotransferase 2A1 (SULT2A1, Homo sapiens, UniProt Q06520); enzyme activity, inhibitor, radiometric; pH 7.4).
For C=C(NC(=O)C(=C)NC(=O)c1csc(C2=N[C@@H]3c4csc(n4)[C@H]4NC(=O)c5csc(n5)[C@H]([C@](C)(O)[C@@H](C)O)NC(=O)[C@H]5CSC(=N5)/C(=C/C)NC(=O)[C@H]([C@@H](C)O)NC(=O)c5csc(n5)[C@]3(CC2)NC(=O)[C@H](C)NC(=O)C(=C)NC(=O)[C@H](C)NC(=O)[C@H]([C@@H](C)CC)N[C@@H]2C=Cc3c([C@H](C)O)cc(nc3[C@H]2O)C(=O)O[C@@H]4C)n1)C(N)=O, the IC50 was 0.95 ± 0.15 µM (Proteasome subunit beta type-7, in 20S proteasome (PSMB7, Homo sapiens, UniProt Q99436); trypsin-like activity, inhibitor; purified 20S proteasome; 15 min preincubation, 37 °C, together with: Boc-Leu-Arg-Arg-AMC substrate).
